# Measured values collected from several papers.
# Parts stem from different laboratories: compare values within a part only.

# Block 1 — method: RNA Bind-n-Seq; molecule type: RNA; matrix: in vitro; concentration: 1 µM; notes: whole 134-nt RNA, ends assumed; together with: 150 mM KCl; relative to: input library; reading: higher = stronger binding
# Target: Ras GTPase-activating protein-binding protein 1, RRM domain (G3BP1, Homo sapiens, UniProt Q13283)
# UniProt Q13283, sequence (whole entry, looked up): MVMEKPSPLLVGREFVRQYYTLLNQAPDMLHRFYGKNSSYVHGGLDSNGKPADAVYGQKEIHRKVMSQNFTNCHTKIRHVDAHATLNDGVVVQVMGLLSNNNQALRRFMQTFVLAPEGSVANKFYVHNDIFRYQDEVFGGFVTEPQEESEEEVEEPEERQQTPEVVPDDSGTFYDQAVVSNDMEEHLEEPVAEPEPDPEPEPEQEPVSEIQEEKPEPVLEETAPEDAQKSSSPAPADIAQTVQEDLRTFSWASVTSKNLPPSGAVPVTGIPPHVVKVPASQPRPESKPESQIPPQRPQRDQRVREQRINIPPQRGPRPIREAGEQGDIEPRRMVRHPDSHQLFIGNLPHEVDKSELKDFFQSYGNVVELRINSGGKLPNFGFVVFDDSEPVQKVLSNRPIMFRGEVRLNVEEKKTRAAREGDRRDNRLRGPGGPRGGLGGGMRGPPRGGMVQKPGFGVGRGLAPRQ
# Constant ends, left off below: GGGAGUUCUACAGUCCGACGAUC … UGGAAUUCUCGGGUGUCAAGG
Sequence,log2 enrichment
AAGUCCUGUGCUACACAUCGUAUGUACCGAAUCGGUUUUUGGUUUUUGGGUUUUUGGAAAGUAUUAUGUUACGCCGUUCGGAUCUGCACU,-0.0435
UCCUGUGCUACACAUCGUAUGUACCGAAUCGGUUUUUUUGGGUUUUUUUGGUUUUUUUGGAAAGUAUUAUGUUACGCCGUUCGGAUCUGC,-0.103
UCAAGUCCUGUGCUACACAUCGUAUGUACCGAAUCGGUUUUUUUGGAGGUUUGGAAAGUAUUAUGUUACGCCGUUCGGAUCUGCACUUCC,-0.242
CACAGACAACACGCACAAACACAGACACAGAGGGAAGGGGUUGGGAUGGGGACAGGGUGCACAGCAGGGCGGGGUAGGACCCCAGCCCCU,-0.129
CACAGACAACACGCACCCACACAGACACAGAGGGAAGGGGUUGGGAUGGGGACAGGGUGCACAGCAGGGCGGGAAAGGACCCCAGCCCCU,-0.178
UAACUUUAGAGGAGGAUCUGAUGGAUAUGGCAGUGGACGUGGAUUUGGGGAUGGCUAUAAUGGGUAUGGAGGAAGACCUGGAGGUGGCAA,-0.415
UGGCCCUGGUGGCAUGCGGUGAGGAAGAGGUGGCCUCAUGGAUCGUGGUGGUCCCGGUGGAAUGUUCAGAGGUGGCCGUGGUGGAGACAG,0.842
CCUGUGCUACACAUCGUAUGUACCGAAUCAAACCCCCAAAUUUUUUUAAACCCCCCCAAAAAAGUAUUAUGUUACGCCGUUCGGAUCUGC,-0.571
UCAAGUCCUGUGCUACACAUCGUAUGUACCGAAUCGGAAAAAAAGGAAAGGUGGAAAGUAUUAUGUUACGCCGUUCGGAUCUGCACUUCC,-0.248
CCUGUGCUACACAUCGUAUGUACCGAAUCGGGGAAAAAAAGGGGAAAAAGGGGUUUGGGGAAAGUAUUAUGUUACGCCGUUCGGAUCUGC,0.783
UUCAGUUGGAUGGAUUUAUUGCUCGAAACUGGGCCAAUCAAAGAUCAGCUUUGGGAAGUGCUCUUGAUCCACUUGCUGAUAAAAUACUUA,-0.238
ACCAUGCAGGUGGGCAUCUUUGGGAAGUGGGGCAAGGGGGGGAUAGGGAGGGGGGUAACACUUUGGGACCAGGUGGUCCCAGGUCGUUUC,0.988
CUGUGCUACACAUCGUAUGUACCGAAUCGGGUUUUUUUGGGUUUUUUUGGGGUUUUUUUGGAAAGUAUUAUGUUACGCCGUUCGGAUCUG,-0.174
UGGCCCUGGUGGCAUGCGGGGAGGAAGAGGUGGCCUCAUGGAUCGUGGUGGUCCCGGUGGAAUGUUGAGAGGUGGCCGUGGUGGAGACAG,2.02

# Block 2 — method: protein-binding microarray; molecule type: double-stranded DNA, one strand shown; matrix: in vitro; concentration: 2200 nM top; notes: 60-bp whole probe; together with: salmon DNA 0.4 mg/ml; relative to: random background probes; reading: higher = stronger binding; constant ends, left off below: GCCTAGCAC … GTCTTGATTCGCTTGACGCTGCTG
# Target: Interferon regulatory factor 7, full length, phosphomimetic (IRF7, Homo sapiens, UniProt Q92985, residues 1-503, S471D/S472D/S475D/S476D/S477D/S483D/S484D/S487D)
# UniProt Q92985, sequence (whole entry, unmodified, looked up): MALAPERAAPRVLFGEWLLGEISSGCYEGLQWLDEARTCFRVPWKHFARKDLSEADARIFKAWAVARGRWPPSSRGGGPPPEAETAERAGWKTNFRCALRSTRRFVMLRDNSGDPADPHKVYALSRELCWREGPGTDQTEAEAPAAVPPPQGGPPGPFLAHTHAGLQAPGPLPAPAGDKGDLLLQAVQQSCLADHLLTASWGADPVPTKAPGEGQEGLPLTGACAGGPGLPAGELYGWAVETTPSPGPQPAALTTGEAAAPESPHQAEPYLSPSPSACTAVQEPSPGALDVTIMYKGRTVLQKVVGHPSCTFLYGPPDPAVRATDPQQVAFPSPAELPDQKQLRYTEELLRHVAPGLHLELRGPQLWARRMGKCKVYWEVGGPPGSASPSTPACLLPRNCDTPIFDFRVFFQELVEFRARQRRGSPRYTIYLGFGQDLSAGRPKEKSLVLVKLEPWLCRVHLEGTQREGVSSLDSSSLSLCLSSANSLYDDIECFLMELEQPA
Sequence,fitted relative affinity [z-score]
TCATGTTTACAGATGTTACTGTGCTAG,1.23
TCCATTTTCAGAATTTACTTGTGCTAG,2.62
TCAGTTCTCAGCTTGGGACTGTGCTAG,0.971
GACGGACTGGCTCTCGGGACGTGCTAG,-0.749
TTGGGACTGGGACTGGGTTAGTGCTAG,-0.913
GACGATATCGGGACTAGAGACGTGCTA,-0.236
TTAGGTTCCGACTTTCGGTTAGTGCTA,6.25
TTAGGTATCGGTATCGTTTAGTGCTAG,0.936
TTAGGGCTCCTTCTCCTTTAGTGCTAG,0.219
TTAGGTCACGGTCTCGGTTAGTGCTAG,0.239
TTAGGTACCGGTATCGGTTAGTGCTAG,0.414
TCCAGCCTGTTTCCAGCAGGGTGCTAG,0.0763
GACGGTATCGAAACTGGGGACGTGCTA,0.938
AGATGGTCCTCTCTCTATTCGTGCTAG,1.05
CTTAGTATTTTTTTCCAGAGGTGCTAG,1.02
TTAGATATCGGATTTCGATTAGTGCTA,1.48
TTAGATATCGGGACTAGATTAGTGCTA,-0.331
CTAGGACTGGACACTGGGTTAGTGCTA,-0.839
GACGGTCTCCTTTTCCGGACGTGCTAG,1.38
TTAGAGCTGGGGTTTCGATTAGTGCTA,1.59
TCAGCTTCCTCTTTCTCACTGTGCTAG,2.56
TGCTGTCTCAGAGTCCTCTGGTGCTAG,0.146

# Block 3 — method: RNA Bind-n-Seq; molecule type: RNA; matrix: in vitro; concentration: 365 nM; relative to: no-protein control; reading: higher = stronger binding
# Target: RNA binding protein fox-1 homolog 2, RRM domain, GST-SBP tag (RBFOX2, Homo sapiens, UniProt O43251-10, residues 100-194)
# Notes: natural RNA segment, single round, ends assumed
# Constant ends, left off below: GGGAGUUCUACAGUCCGACGAUC … UGGAAUUCUCGGGUGCCAA
# Target sequence (chain): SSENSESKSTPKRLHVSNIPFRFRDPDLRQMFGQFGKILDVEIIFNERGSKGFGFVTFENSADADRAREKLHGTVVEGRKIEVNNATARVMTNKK
Sequence,RBNS enrichment (R)
UAUCUUAAGAGUGCUAAAUUUUUAACUGCCUUUUUGUCGAGUCAAACUGUGGGAUUCUGAUUUGUAUUAAAAUUGUAAGCUCCUCACUGGUAUACUAUCAUCCUGGAGGG,0.74
AAACUUGAAAAUAGAAAGCAAAAACCCUCAACUGUUGUAAAUCAUGCAAUUAAGGUUGAUUACUUAUAAAUAUGAACUUUGGAUCACUGUAUAGACUGUUAAAUUUGAUU,0.448
CCUGUUACCAACUGCGCAGACAUCACACAAUCCGUGCCAUGUGAUUGAGAAAUGGAAAUGCCACCUCAACUUAAAUAAUCACAGUUGGUCAUUUAUGCCCACUUUAAAAU,0.682
CAUAGGCAGGAUUCCUAAUUCCUGCCACUCCCCCUAAGAGCAGGACUUCCCUAUGCCAGCACAUGUGCCCCAGGUGGGGCUGAGUACAGGUAACCUUGAGCUCAGCUUGG,0.608
GAGGCCUGUAAUAAUCACCAACUGCCUGAUCACUCUGGCCAUCAUUGGGGCCUGAGGAACAACUUUUGCAGGGUGUAUGUACAGUAGAAGGAGACAGAAGAGUUCUGAUG,0.68
CAGCAUCCUGUGUGAGAACACAUUUUGAAAGCCCAAUGACAUCAACUGGGUAAAGGAAACACUAACCUGUUUCCAGUCUCCAGACAAAGGUUUAAAGCUUUUCAAGAACU,0.374
AGGGAAAAACAACAGCAAUAACAUUCAUAUCUCUGGAGCAGCUAACUCAUACACGUAAUGUCUGCUUUUCGUACAGAACUAGCCAAUGUAAAAACAGUUCACCUGUAAAU,0.479
AGGCUCCCUUGUGUGUCCCUAUACCCUCCAGCCCUCCUUUAGGGUUCUUUUGGGGGUAAGGGGCUAACUGCUCAAGAAAAUCUUGAUCCCCUCUCUUGUCUCCAUUAUUU,0.41
UGCAGCCCGGCUGUGGGAAUGAAUCAUUGGAGUAAUAAACUACAGUGGUUGAUCCACAUGUGCUCGCAACUCUGUUUUGUACAGCGCACGCUUUCCUGGUUUUCAGGGUA,0.385
AGCUUAGAUACCAUGUAGUGGUCUGUGGCUACAGGAAGCUGGUUCUGUCUGCUUCCACAGUCUGCUUAAAAAACUGUCUGACUUCGUGAAUAUAGAGACCAAGUUUACCA,0.315
AACACUUCAAAAAUUAUCUUCAAUCUCCAUUCUCAUGGUAUCUCAUUUUUACUUGGCCCCCAGCAGAUAAUUUUCACCAGUGUUCCAUAUCCUUGUUCUCCAUUCAAGCC,0.417
CUGGGGGAGGCCUGCUAUCCUGCCUCUGGGCCACUUGAGGGGCCUCAGGAAGUGUGUGCUUGUGGCUGCAUCUGCCCGUCUCCCUGGCCCACCAUGUGGCUGCAGGCCAA,6.84

# Block 4 — method: protein binding microarray; molecule type: double-stranded DNA, one strand shown; matrix: in vitro; concentration: not given; relative to: not given; reading: higher = stronger binding
# Target: Histone acetyltransferase KAT6A, both winged helices, GST fusion (KAT6A, Homo sapiens, UniProt Q92794, residues 1-181)
# Notes: 8-mer, flanks averaged, mean of 2 arrays, mostly near background
# Residues (chain): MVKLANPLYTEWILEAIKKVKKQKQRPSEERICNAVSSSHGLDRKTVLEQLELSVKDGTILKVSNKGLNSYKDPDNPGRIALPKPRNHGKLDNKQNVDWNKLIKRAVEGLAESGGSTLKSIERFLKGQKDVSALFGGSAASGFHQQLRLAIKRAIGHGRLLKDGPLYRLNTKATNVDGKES
Sequence,E-score
GGTCGGGA,0.0922
GGTCGCAC,0.179
AGATAACG,0.0862
AGATTTCC,-0.142
CCTTAATC,-0.0835
CCTGGCAC,-0.181
CTGTATCA,0.0332
AGCGGCCC,0.133
CTTACCCC,-0.154
CAGGCATG,-0.109
AACTGATA,-0.00156
GTGGGCCA,-0.0994
CATCGATC,-0.13
CGGGTTTA,0.283
ATAGTAGC,0.109
GTGATCGA,-0.0482
GGAAGCAC,-0.0259
AGACTCTC,-0.193

# For quick reference, copied from above (block 1):
Sequence,log2 enrichment
AAGUCCUGUGCUACACAUCGUAUGUACCGAAUCGGUUUUUGGUUUUUGGGUUUUUGGAAAGUAUUAUGUUACGCCGUUCGGAUCUGCACU,-0.0435
UAACUUUAGAGGAGGAUCUGAUGGAUAUGGCAGUGGACGUGGAUUUGGGGAUGGCUAUAAUGGGUAUGGAGGAAGACCUGGAGGUGGCAA,-0.415
ACCAUGCAGGUGGGCAUCUUUGGGAAGUGGGGCAAGGGGGGGAUAGGGAGGGGGGUAACACUUUGGGACCAGGUGGUCCCAGGUCGUUUC,0.988
CUGUGCUACACAUCGUAUGUACCGAAUCGGGUUUUUUUGGGUUUUUUUGGGGUUUUUUUGGAAAGUAUUAUGUUACGCCGUUCGGAUCUG,-0.174
UCCUGUGCUACACAUCGUAUGUACCGAAUCGGUUUUUUUGGGUUUUUUUGGUUUUUUUGGAAAGUAUUAUGUUACGCCGUUCGGAUCUGC,-0.103
